Measurements collected from several papers.
Protocols differ between the studies behind these lines. ± gives the spread as reported.
Target: Cytochrome P450 2C9 (CYP2C9, Homo sapiens, UniProt P11712)
Chain of UniProt P11712 (whole entry, looked up): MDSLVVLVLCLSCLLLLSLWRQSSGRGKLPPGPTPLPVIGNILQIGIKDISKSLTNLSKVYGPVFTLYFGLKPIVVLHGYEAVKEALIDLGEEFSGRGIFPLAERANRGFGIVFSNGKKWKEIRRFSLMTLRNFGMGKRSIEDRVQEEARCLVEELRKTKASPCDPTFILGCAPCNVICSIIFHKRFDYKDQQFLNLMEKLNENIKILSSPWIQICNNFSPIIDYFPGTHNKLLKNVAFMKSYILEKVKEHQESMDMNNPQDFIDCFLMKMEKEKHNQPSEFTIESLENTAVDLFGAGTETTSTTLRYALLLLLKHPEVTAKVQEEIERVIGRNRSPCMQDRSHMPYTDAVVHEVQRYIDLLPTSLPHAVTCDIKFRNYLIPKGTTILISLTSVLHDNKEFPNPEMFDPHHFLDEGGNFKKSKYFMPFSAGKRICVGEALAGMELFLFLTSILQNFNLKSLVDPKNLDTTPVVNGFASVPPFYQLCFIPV

SMILES = CC(C)=CCc1c(O)cc2c(c1O)C(=O)C[C@@H](c1ccc(O)cc1)O2; setting = 10 µM, pH 7.4; endpoint = inhibition; value = 63.8 ± 2%
SMILES = N#C[C@H](C[C@@H]1CCCNC1=O)NC(=O)[C@H](CC1CC1)NC(=O)c1cc2cccc(Cl)c2[nH]1; assay = NADPH metabolic stability; setting = 2 µM, pH 7.4; endpoint = half-life; value = > 10 min
SMILES = C[C@@H](c1ccc2nccn2c1)n1nnc2ncc(-c3cnn(C)c3)nc21; system = human liver microsomes; setting = 10 and 50 µM, 30 min preincubation, pH 7.4, with: ± NADPH; endpoint = time-dependent inhibition; value = < 20%
SMILES = CCCCC1=NC2(CCCC2)C(=O)N1Cc1ccc(-c2ccccc2S(=O)(=O)Nc2noc(C)c2C)c(COCC)c1; assay = substrate; system = recombinant human CYP; endpoint = fraction metabolized; value = 18.5%
SMILES = CCc1cc(/C(C)=N/OCc2ccc(C3CCCCC3)c(C(F)(F)F)c2)ccc1CN1CC(C(=O)O)C1; assay = population PK; system = human, CYP2C9*1/*3, plasma; endpoint = CYP2C9-mediated clearance; value = 1.38 L/h
SMILES = C=CC(=O)Nc1cc(Nc2nccc(-c3cn(C)c4ccccc34)n2)c(OCC(F)(F)F)nc1N(C)CCNC; assay = substrate depletion; system = recombinant human CYP; setting = 1 µM; endpoint = intrinsic clearance; value = 0.3 µL/min/pmol
SMILES = COc1cc(O)c(CC=C(C)C)c2c1C(=O)CC(c1ccc(O)cc1)O2 (stereo not shown); assay = enzyme activity, inhibitor; system = human liver microsomes; setting = 1 µM, pH 7.4, with: tolbutamide; endpoint = inhibition; value = 31.6 ± 8%
SMILES = Cc1cc(C)c(CNC(=O)c2cc(Cl)c3c(c2C)O[C@@](C)([C@H]2CC[C@H](N(C)C)CC2)O3)c(=O)[nH]1; system = recombinant human CYP2C9; setting = 0 and 30 min; endpoint = CLint; value = 0.00168 µL/min/pmol
SMILES = COc1cc(O)c(CC=C(C)C)c(O)c1C(=O)/C=C/c1ccc(O)cc1; assay = enzyme activity, inhibitor; system = human liver microsomes; setting = 1 µM, pH 7.4, with: tolbutamide; endpoint = inhibition; value = < 10%
SMILES = C=CCN=C=S; assay = enzyme activity; system = human liver microsomes; setting = concentration not given, 10 min, with: tolbutamide; endpoint = inhibition; value = ~77%

Excerpt of the above:
SMILES = C[C@@H](c1ccc2nccn2c1)n1nnc2ncc(-c3cnn(C)c3)nc21; system = human liver microsomes; setting = 10 and 50 µM, 30 min preincubation, pH 7.4, with: ± NADPH; endpoint = time-dependent inhibition; value = < 20%
